Earlier results that unrelated publications cite.
Protocols differ between the studies behind these lines. Numbers after ± are the reported error.

SMILES = CC1=C(C)C(=O)OC(C(C)(O)C2CCC3C4CC5OC56C(O)C=CC(=O)C6(C)C4CCC32C)C1 (centres unmarked); cell line = Hep G2; test = cell growth; IC50 = 0.45 µM
SMILES = COc1cc(OC)cc(C2=C3C(C)=C(I)C(C)=[N+]3[B-](F)(F)n3c(C)c(I)c(C)c32)c1; cell line = HEp-2; test = cytotoxicity; setting = dark; IC50 = > 400 µM
SMILES = COc1cc(/C=N/N2C(=O)c3ccccc3NC2c2cc(OC)c(O)c(OC)c2)cc(OC)c1O (centres unmarked); cell line = human renal tubule TH-1; test = cytotoxicity; IC50 = 374 µM
SMILES = N=C(NO)NN=Cc1nccc2ccccc12; cell line = L1210; IC50 = 3.3 µM
SMILES = CC1=C(CO)C(=O)O[C@@H]([C@@H](C)[C@H]2CC[C@H]3[C@@H]4C[C@H]5O[C@]56[C@@H](O)C=CC(=O)[C@]6(C)[C@H]4CC[C@]23C)C1; cell line = L5178Y; test = cell growth; IC50 = 0.64 µM
SMILES = O=C1OCC2=C1C(c1ccccc1[N+](=O)[O-])C1=C(N2)C(=O)c2ccccc2C1=O (centres unmarked); cell line = KB cells; test = cell growth; IC50 = 1.86 ± 0.02 µM
SMILES = CCCCCCCCCCCCCCCCOC(=O)C1=C(C)NC(=O)NC1c1cccc(O)c1 (centres unmarked); cell line = glioma cell lines; test = cell growth; IC50 = 10 µM
SMILES = CCC1=C(O)c2c(oc(-c3ccc4ccccc4c3)cc2=O)C(CC)(CC)C1=O; cell line = KB; test = cell growth, SRB; IC50 = 1.03 µM
SMILES = CNC(=O)N[C@]1(C)CCC[C@@]2(C)C3CC[C@@]4(C)C[C@]3(CCC21)CC4=O (single isomer, unassigned); cell line = HBV-transfected cells; test = HBsAg secretion; IC50 = 7.89 µg/mL
SMILES = O=C1NCC(Cc2ccccc2)N(CC2CCCN2CC(CC2CCCCC2)N2CC(Cc3ccc(O)cc3)N(CCc3ccccc3)C(=O)C2=O)C1=O (centres unmarked); cell line = M14; test = viability; IC50 = 4 ± 0.3 µM
SMILES = COc1ccccc1NC(=O)N[C@H](C(=O)Nc1ccc(C(=O)NO)cc1)c1ccccc1; cell line = HeLa; test = cell viability, MTT; IC50 = 17.2 µM
SMILES = Cc1ccc(Cn2cc(CN3C(=O)C4(C(C#N)=C(N)Nc5c4ccc4[nH]c6ccccc6c54)c4ccccc43)nn2)cc1 (centres unmarked); cell line = HeLa; test = cell growth; IC50 = 4.05 µM
SMILES = CCNc1cc2c(cc1C)C1(c3cc(C)c(NCC)cc3O2)c2ccccc2C(=O)N1N=Cc1ccnc(-c2cc(C)ccn2)c1.Cc1c(C)c(-c2ccc(-c3ccccc3)cc2)[c-](C)c1C.F[P-](F)(F)(F)(F)F.[Cl-].[Ir+3]; cell line = HeLa cancer cells; IC50 = 3.6 ± 0.8 µM
SMILES = Oc1cccc(-c2cccc(O)n2)n1.[Cl-].[Cl-].[Ru+2].c1cnc2c(c1)ccc1cccnc12.c1cnc2c(c1)ccc1cccnc12; cell line = HeLa; test = cell viability; setting = dark; IC50 = 1440 µM
SMILES = CC(=O)OC1CC2C3C(OC(C)=O)C4OC45C(O)C=CC(=O)C5(C)C3CCC2(C)C1C(C)(O)C1CC(C)=C(C)C(=O)O1 (centres unmarked); cell line = Col2; test = cell growth; IC50 = 0.06 µM
SMILES = [Cl-].[Cl-].[Ru+2].c1ccc(-c2ccccn2)nc1.c1ccc(-c2ccccn2)nc1.c1cnc2c(c1)ccc1cccnc12; cell line = MDA-MB-231; setting = dark; IC50 = > 100 µM
SMILES = CCC1=C(O)c2c(oc(-c3ccc4cc(OC)ccc4c3)cc2=O)C(CC)(CC)C1=O; cell line = PC-3; test = cell growth, SRB; IC50 = 4.78 µM
SMILES = COc1cc(Nc2nnc(-c3cc4ccccc4[nH]3)s2)cc(OC)c1OC; cell line = LNCaP; test = cytotoxicity; IC50 = 0.15 µM
SMILES = CC1=C2[O][Ru-]([Cl])[O+]=C2C=CN1CCCCCCCCCCCCN1C=CC2=[O+][Ru-]([Cl])[O]C2=C1C.Cc1ccc(C(C)C)cc1.Cc1ccc(C(C)C)cc1; cell line = A2780; test = MTT; IC50 = 1.5 ± 0.3 µM
SMILES = O=C1OCC2=C1C(c1cccc(Br)c1)C1=C(N2)C(=O)c2ccccc2C1=O (centres unmarked); cell line = HepG2 cells; test = cell growth; IC50 = < 0.036 µM

Excerpt of the above:
SMILES = CCC1=C(O)c2c(oc(-c3ccc4ccccc4c3)cc2=O)C(CC)(CC)C1=O; cell line = KB; test = cell growth, SRB; IC50 = 1.03 µM
SMILES = Cc1ccc(Cn2cc(CN3C(=O)C4(C(C#N)=C(N)Nc5c4ccc4[nH]c6ccccc6c54)c4ccccc43)nn2)cc1 (centres unmarked); cell line = HeLa; test = cell growth; IC50 = 4.05 µM
SMILES = N=C(NO)NN=Cc1nccc2ccccc12; cell line = L1210; IC50 = 3.3 µM
